Published values from different studies.
Protocols differ between the studies behind these lines. Several values in a cell are separate wells, animals, samples, runs or records. Numbers after ± are the reported error.
Sequence of UniProt Q9Y2I7 (whole entry, looked up): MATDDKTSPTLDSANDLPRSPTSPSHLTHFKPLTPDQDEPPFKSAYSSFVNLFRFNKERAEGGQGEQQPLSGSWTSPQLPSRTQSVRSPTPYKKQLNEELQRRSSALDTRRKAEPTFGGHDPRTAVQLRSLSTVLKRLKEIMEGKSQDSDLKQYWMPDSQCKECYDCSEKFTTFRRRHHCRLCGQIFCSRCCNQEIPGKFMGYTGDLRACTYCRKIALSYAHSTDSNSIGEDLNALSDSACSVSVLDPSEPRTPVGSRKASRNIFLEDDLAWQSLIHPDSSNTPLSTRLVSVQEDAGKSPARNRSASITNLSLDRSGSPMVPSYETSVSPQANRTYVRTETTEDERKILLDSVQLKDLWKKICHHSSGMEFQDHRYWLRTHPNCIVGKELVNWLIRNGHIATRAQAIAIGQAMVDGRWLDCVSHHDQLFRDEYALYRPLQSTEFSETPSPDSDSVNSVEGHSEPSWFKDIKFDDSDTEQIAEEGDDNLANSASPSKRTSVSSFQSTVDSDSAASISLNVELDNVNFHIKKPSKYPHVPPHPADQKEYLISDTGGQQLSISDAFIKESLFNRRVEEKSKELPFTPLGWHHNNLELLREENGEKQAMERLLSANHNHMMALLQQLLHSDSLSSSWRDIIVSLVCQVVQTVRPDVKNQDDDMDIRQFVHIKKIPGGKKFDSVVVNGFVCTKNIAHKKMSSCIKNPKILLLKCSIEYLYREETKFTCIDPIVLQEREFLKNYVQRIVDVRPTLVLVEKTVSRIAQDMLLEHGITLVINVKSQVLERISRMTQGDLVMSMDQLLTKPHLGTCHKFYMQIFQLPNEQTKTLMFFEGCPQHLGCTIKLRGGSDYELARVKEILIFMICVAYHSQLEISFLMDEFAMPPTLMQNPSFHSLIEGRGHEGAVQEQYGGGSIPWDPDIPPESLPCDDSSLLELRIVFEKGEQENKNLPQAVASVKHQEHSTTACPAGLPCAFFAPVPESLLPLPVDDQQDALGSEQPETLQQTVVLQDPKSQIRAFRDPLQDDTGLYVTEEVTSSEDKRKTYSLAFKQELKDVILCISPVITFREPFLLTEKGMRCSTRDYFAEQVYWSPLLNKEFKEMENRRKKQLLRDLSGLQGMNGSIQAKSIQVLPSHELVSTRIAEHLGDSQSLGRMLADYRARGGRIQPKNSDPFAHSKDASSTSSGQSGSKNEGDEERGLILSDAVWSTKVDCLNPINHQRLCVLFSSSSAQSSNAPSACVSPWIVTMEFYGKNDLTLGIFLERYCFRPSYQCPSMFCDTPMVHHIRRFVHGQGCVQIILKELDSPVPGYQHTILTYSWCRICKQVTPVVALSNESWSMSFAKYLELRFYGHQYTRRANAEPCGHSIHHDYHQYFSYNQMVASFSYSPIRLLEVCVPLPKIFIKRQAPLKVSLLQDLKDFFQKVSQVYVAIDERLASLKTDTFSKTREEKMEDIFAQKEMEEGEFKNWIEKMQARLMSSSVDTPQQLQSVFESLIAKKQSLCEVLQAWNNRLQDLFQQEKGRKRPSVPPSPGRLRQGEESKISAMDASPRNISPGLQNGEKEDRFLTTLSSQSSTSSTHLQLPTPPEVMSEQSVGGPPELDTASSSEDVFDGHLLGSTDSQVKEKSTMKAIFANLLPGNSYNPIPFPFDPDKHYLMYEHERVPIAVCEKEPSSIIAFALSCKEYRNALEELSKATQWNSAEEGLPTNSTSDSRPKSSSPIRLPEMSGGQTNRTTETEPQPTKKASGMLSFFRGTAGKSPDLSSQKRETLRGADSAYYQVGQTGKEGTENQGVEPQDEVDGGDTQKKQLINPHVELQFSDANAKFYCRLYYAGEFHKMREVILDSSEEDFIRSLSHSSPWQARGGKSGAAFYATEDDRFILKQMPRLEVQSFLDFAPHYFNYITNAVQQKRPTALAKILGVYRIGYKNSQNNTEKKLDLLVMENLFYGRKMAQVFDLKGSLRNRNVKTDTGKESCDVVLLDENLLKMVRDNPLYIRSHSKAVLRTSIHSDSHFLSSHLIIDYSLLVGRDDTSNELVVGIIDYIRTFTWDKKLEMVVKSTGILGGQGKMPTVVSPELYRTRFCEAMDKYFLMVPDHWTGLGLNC
Sequence of UniProt Q00536 (whole entry, looked up): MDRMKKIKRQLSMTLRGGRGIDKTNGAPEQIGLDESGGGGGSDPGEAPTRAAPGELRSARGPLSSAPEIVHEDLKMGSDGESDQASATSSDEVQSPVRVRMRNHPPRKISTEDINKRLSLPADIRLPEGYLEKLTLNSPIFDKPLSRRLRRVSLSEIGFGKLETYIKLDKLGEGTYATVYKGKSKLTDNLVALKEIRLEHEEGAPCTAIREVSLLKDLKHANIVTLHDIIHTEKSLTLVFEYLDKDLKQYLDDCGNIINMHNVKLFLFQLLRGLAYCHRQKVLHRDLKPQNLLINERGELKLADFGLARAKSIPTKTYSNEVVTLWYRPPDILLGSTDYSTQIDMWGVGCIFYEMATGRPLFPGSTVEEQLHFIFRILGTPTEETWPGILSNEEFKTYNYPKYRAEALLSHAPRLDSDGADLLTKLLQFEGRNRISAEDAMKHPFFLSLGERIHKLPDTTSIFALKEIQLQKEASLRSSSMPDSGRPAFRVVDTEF
Sequence of UniProt P32246 (whole entry, looked up): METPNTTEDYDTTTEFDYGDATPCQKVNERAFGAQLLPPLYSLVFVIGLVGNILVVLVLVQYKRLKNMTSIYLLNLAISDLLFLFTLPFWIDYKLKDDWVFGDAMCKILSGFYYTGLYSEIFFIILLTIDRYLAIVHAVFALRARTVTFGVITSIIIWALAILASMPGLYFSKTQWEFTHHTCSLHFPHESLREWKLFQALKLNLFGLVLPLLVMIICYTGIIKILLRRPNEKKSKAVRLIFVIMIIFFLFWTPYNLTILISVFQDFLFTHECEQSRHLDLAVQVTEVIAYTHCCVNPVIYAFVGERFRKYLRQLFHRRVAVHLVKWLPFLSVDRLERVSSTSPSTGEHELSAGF

For `O=C(C[Se]C(=O)c1cccs1)Nc1cccc(C(F)(F)F)c1`, the mean TGI was 8.11 µM (NCI60 colon subpanel; NCI60 five-dose screen).
Under “NFATc3 nuclear translocation”, `CC[C@H](C)[C@H](NC(=O)[C@@H](NC(=O)c1cccc(Cl)c1Cl)C(C)(C)C)C(=O)N[C@H](C(=O)N[C@H](C(=O)N[C@H](C(=O)N[C@@H](CCC(N)=O)C(=O)N[C@@H](Cc1c[nH]cn1)C(=O)N[C@H](CC(C)C)C(=O)N[C@@H](CO)C(=O)NCCC(=O)N[C@@H](CCCCNC(=O)CC[C@@H]1NC(=O)[C@@H](CCCNC(=N)N)NC(=O)[C@H](CCCNC(=N)N)NC(=O)[C@@H](CCCNC(=N)N)NC(=O)[C@H](CCCNC(=N)N)NC(=O)[C@H](Cc2ccc3ccccc3c2)NC(=O)[C@@H](Cc2ccccc2)NC1=O)C(N)=O)[C@@H](C)O)[C@@H](C)CC)C(C)(C)C` is recorded as “inhibited” (mouse macrophages; immunofluorescence; 1 µM, added: LPS 100 ng/mL).
With `COc1ccc2c(c1)c(CC(=O)[Se]CC(=O)Nc1cccc(C(F)(F)F)c1)c(C)n2C(=O)c1ccc(Cl)cc1` the CC50 was 6.56 µM (NCI60 CNS subpanel; NCI60 five-dose screen).
With `CS(C)(=O)=Nc1ccc(-c2ccc(-c3nc4cc(O[C@@H]5CO[C@H]6[C@@H]5OC[C@H]6O)[nH]c4cc3F)cc2)cc1` the inhibition was 38% (MCHR1 (Homo sapiens, UniProt Q99705); calcium signal, antagonist; 10 µM).
`O=C(C[Se]C(=O)c1ccccc1Nc1cccc(C(F)(F)F)c1)Nc1cccc(C(F)(F)F)c1` has a CC50 of 23.4 µM (NCI60 colon subpanel; NCI60 five-dose screen).
`[2H]C([2H])([18F])[C@]([2H])(N)C(=O)O`: “inhibition of cellular uptake” 88% (U-87 MG; concentration not given, added: L-alanine 5 mM).
`CC(C)Cc1ccc(C(C)C(=O)[O-])cc1.CC(C)Cc1ccc(C(C)C(=O)[O-])cc1.O.[Cu+2].c1ccncc1.c1ccncc1` (stereo not drawn) gave a TGI of greater than 100 µM (MRC-5; MTT; 48 h).
The necrotic cells of `CC1CCC2C(C)C(OC(=O)CCC(=O)N3CCC(Nc4ccc(S(=O)(=O)NC(=O)c5ccc(N6CCN(CC7=C(c8ccc(Cl)cc8)CC(C)(C)CC7)CC6)cc5Oc5cnc6[nH]ccc6c5)cc4[N+](=O)[O-])CC3)OC3OC4(C)CCC1C32OO4` (stereo not drawn) is reported as 0.1% (THP-1; annexin V/PI flow cytometry, item: annexin V-/PI+; 0.2 µM, 24 h).
With `CC(C)C[C@H](NC(=O)[C@H](CCC(=O)O)NC(=O)[C@@H](N)Cc1ccccc1)C(=O)N[C@@H](CCC(=O)O)C(=O)N[C@@H](CCCNC(=N)N)C(=O)N[C@@H](CCCNC(=N)N)C(=O)N[C@@H](Cc1ccccc1)C(=O)N[C@@H](CCCCN)C(=O)N[C@@H](CCC(N)=O)C(=O)N[C@@H](CCC(N)=O)C(=O)O` the viability was 106% and 102% and 103% (HCT-116; CCK-8; 5 µM; reference: vehicle).
With `COc1ccccc1-c1ccncc1C(=O)Nc1nnc(OCc2ccc(Cl)cc2)s1` the colony survival was 95.2% and 97.9% and 98.2% (DLD-1 parental; 0.5 µM; reference: untreated).
`Cc1cc(C(=O)Nc2nc3cccc(C)c3n2[C@H]2CCCCN(C(=O)/C=C/CN(C)C)C2)ccn1` gave a survival of 188% and 195% and 167% and 204% (Trypanosoma brucei brucei; 2T1 CLK1 overexpressing; 0.0391 µM, compound pretreated; reference: maximum).
With `Cc1ccc(C(C)C)cc1.Cc1ccc(C(C)C)cc1.Cc1ccc(C(C)C)cc1.Cc1ccc(C(C)C)cc1.O=S(=O)(O)C(F)(F)F.O=S(=O)(O)C(F)(F)F.O=S(=O)(O)C(F)(F)F.O=S(=O)(O)C(F)(F)F.c1ccc2c3c4ccccc4c(c2c1)-c1cn(nn1)-c1cc[n+](cc1)[Ru-]1[O]c2ccc4c5c(ccc(c25)=[O+]1)=[O+][Ru-]([O]4)[n+]1ccc(cc1)-n1cc(nn1)-c1c2ccccc2c(c2ccccc12)-c1cn(nn1)-c1cc[n+](cc1)[Ru-]1[O]c2ccc4c5c(ccc(c25)=[O+]1)=[O+][Ru-]([O]4)[n+]1ccc(cc1)-n1cc-3nn1` the IC50 was 6.9 ± 0.2 µM (HepG2; cell growth, MTT; 24 h, 20 µM preincubated in medium 48 h at 37 °C).
The selectivity ratio of `CSCC[C@H](NC(=O)[C@@H](NC(=O)[C@H](CCC(N)=O)NC(=O)[C@H](CO)NC(=O)[C@@H](N)C(C)C)[C@@H](C)O)C(=O)N[C@@H](CCCNC(=N)N)C(=O)N[C@@H](CCC(N)=O)C(=O)N[C@H](C(=O)N[C@@H](C)C(=O)N[C@H](C(=O)N1CCC[C@H]1C(=O)N[C@@H](CC(C)C)C(=O)N[C@@H](CC(C)C)C(=O)N[C@@H](Cc1c[nH]c2ccccc12)C(=O)N[C@@H](Cc1ccccc1)C(=O)N[C@@H](Cc1c[nH]c2ccccc12)C(=O)N[C@H](C(=O)NCC(=O)N[C@@H](CO)C(=O)N[C@@H](CC(C)C)C(=O)NCCOCCOCCOCCOCCOCCOCCOCCOCCOCCOCCOCCOCCC(=O)N[C@@H](CS)C(N)=O)[C@@H](C)O)C(C)C)[C@@H](C)O` is reported as 1.8 ± 1.2 (H1437 lung adenocarcinoma; cell binding, phage binding, item: output/input phage; 10 min, 37 °C; reference: control phage).
With `O=C(C[Se]C(=O)c1ccc2ccccc2c1)Nc1cccc(C(F)(F)F)c1` the CC50 was 20 µM (NCI60 colon subpanel; NCI60 five-dose screen).
The inhibition of `CN(C)[C@H]1C[C@@]23CC[C@@]4(O2)C(=CC[C@]2(C)[C@@H](c5ccc6ccncc6c5)CC[C@H]24)C=C3[C@@H](O)[C@@H]1O` is reported as 3.1% (PIKFYVE (Homo sapiens, UniProt Q9Y2I7); ATP probe labelling, inhibitor, KiNativ profiling; 1 µM).
The remaining binding of `Nc1ccc(/C=C/C(=O)N2CCc3c(oc4c(-c5ccc(F)cc5)cc(-c5ccc(C(=O)N6CCC(F)(F)CC6)cn5)cc34)C2)cn1` is reported as 72% (CDK16 (Homo sapiens, UniProt Q00536); binding, competition with immobilised ligand; 1 µM).
`CC(C)(C)C(=O)OCOP(=O)(OCOC(=O)C(C)(C)C)C1CCCN(O)C1=O` (stereo not drawn) gave a log LC50 of greater than -4 log M (UO-31).
With `Cc1sc2c(c1C)C(c1ccc(Cl)cc1)=NC(CC(=O)OC(C)(C)C)c1nnc(C)n1-2` (stereo not drawn) the specific binding was 104% (CCR1 (Homo sapiens, UniProt P32246); agonist radioligand binding; 1 µM).
`CC(C)[C@H](NC(=O)[C@H](CCCNC(=N)N)NC(=O)[C@@H]1CCCN1C(=O)[C@@H](NC(=O)[C@H](C)NC(=O)[C@H](Cc1ccc(O)cc1)NC(=O)[C@H](CCC(N)=O)NC(=O)[C@H](CCCCN)NC(=O)[C@H](CCCNC(=N)N)NC(=O)[C@@H]1CCCN1C(=O)[C@H](CCC(=O)O)NC(=O)[C@@H](NC(=O)[C@H](C)N)[C@@H](C)O)[C@@H](C)O)C(=O)N[C@@H](Cc1ccccc1)C(=O)N[C@@H](Cc1c[nH]c2ccccc12)C(=O)N[C@H](C(=O)N[C@@H](CC(=O)O)C(=O)N[C@@H](C)C(=O)N1CCC[C@H]1C(=O)NCC(=O)NCCOCCOCCOCCOCCOCCOCCOCCOCCOCCOCCOCCOCCC(=O)N[C@@H](CS)C(N)=O)[C@@H](C)O` has a selectivity ratio of 170 ± 78 (MDA-MB-231 breast cancer; cell binding, phage binding, item: output/input phage; 10 min, 37 °C; reference: control phage).
`O=C(O)c1ccc(-c2nc(-c3ccccc3Cl)c3sccn23)cc1` — result for “multipotential progenitor colonies”: “no effect” (human CD34+ haematopoietic stem cells; colony; concentration not given, 24 h priming before plating, single dose).
`O=c1cc(-c2ccccc2)oc2c(O)c(O)ccc12` has an EC50 of 6.2 µM (SH-SY5Y Aβ-GFP cells; ROS reduction, CellROX).
For `NC(=S)N/N=C/c1ccc(OCc2cccc(F)c2)cc1`, “glutathione peroxidase activity (OD450)” read 0.245 a.u. (IMR-32; item: GPX3; 300 µg/mL, 24 h; higher = more activity).
With `CC(C)C[C@H](NC(=O)[C@H](CC(=O)O)NC(=O)CNC(=O)[C@@H](N)CCCNC(=N)N)C(=O)N[C@@H](C)C(=O)N[C@H](C(=O)N[C@@H](CC(C)C)C(=O)N[C@@H](CCCNC(=N)N)C(=O)N[C@@H](CCC(N)=O)C(=O)N[C@@H](CC(C)C)C(=O)N[C@@H](C)C(=O)N[C@@H](CCC(N)=O)C(=O)N[C@@H](CCC(=O)O)C(=O)N[C@@H](CC(=O)O)C(=O)NCC(=O)N[C@H](C(=O)N[C@H](C(=O)NCC(=O)N[C@H](C(=O)N[C@@H](CCCNC(=N)N)C(=O)NCCOCCOCCOCCOCCOCCOCCOCCOCCOCCOCCOCCOCCC(=O)N[C@@H](CS)C(N)=O)C(C)C)C(C)C)C(C)C)[C@@H](C)O` the selectivity ratio was 2.3 ± 0.96 (H1437 lung adenocarcinoma; cell binding, phage binding, item: output/input phage; 10 min, 37 °C; reference: control phage).
With `Cc1ccc(N2CC3CN(C)CC3C2)cc1C(=O)N[C@H](C)c1cc(-c2cnn(C)c2)nc2ccccc12` (stereo partly drawn) the viability was 1.63% and 1.8% (Vero E6; 125 µM).
For `CC(C)CC(O)(CC(C)C)c1cn(C(=O)N2CCCC2)nn1`, the protein level was 1.19 (mouse T-cells; SILAC proteomics, item: TMSB4X; 1 nM, 6 h, unit not given; reference: DMSO).
`N=C(N)NCCC[C@@H]1NC(=O)[C@H](CCCCNC(=O)CCC(NC(=S)Nc2ccc(CC3CN(CC(=O)O)CCN(CC(=O)O)CCN(CC(=O)O)CCN3CC(=O)O)cc2)C(=O)NCCCC[C@@H]2NC(=O)[C@@H](Cc3ccc(O)cc3)NC(=O)[C@H](CC(=O)O)NC(=O)CNC(=O)[C@H](CCCNC(=N)N)NC2=O)NC(=O)[C@@H](Cc2ccc(O)cc2)NC(=O)[C@H](CC(=O)O)NC(=O)CNC1=O` (stereo partly drawn) [scandium-44 labelled] gave a tissue uptake of 0.04 ± 0.02 %ID/g (PET imaging; female athymic nude mouse, muscle; intravenous, 2 h, U-87 MG xenograft, added: cRGD 50 mg/kg blocking).
For `O=C1NC2(CC2)COc2ncc(F)cc2[C@H]2COCCN2c2ccn3ncc1c3n2`, the serum urea was 3.63 ± 0.51 mmol/L (Sprague-Dawley rat, male, serum; oral, 5 mg/kg/day, end of recovery, 4-week subacute toxicity).
`COc1ccccc1-c1n[nH]c2nc(N[C@H]3CC[C@H](NS(=O)(=O)CC(C)C)CC3)ncc12` gave a relative abundance of 0.97 (bead binding, competition bead pull-down, item: LMJF.34.0490; Leishmania donovani extract; 10 µM; reference: vehicle).
For `CC[C@H](C)[C@H](NC(=O)[C@@H](NC(=O)[C@@H]1CCCN1C(=O)[C@@H](NC(=O)[C@@H](NC(=O)[C@H](Cc1c[nH]cn1)NC(=O)[C@@H]1CCCN1C(=O)[C@H](CC(C)C)NC(=O)[C@@H](NC(=O)[C@H](Cc1c[nH]cn1)NC(=O)[C@H](CCCCN)NC(=O)[C@H](C)NC(=O)[C@H](CO)NC(=O)CNC(=O)[C@H](CC(C)C)NC(=O)[C@@H](NC(=O)CNC(=O)[C@H](Cc1ccccc1)NC(=O)[C@H](CC(C)C)NC(=O)CNC(=O)[C@@H](N)Cc1ccc(O)cc1)C(C)C)C(C)C)C(C)C)C(C)C)C(C)C)C(=O)N[C@@H](C)C(=O)N[C@@H](CCC(=O)O)C(=O)N[C@@H](Cc1c[nH]cn1)C(=O)N[C@@H](CC(C)C)C(N)=O`, the viability was 96.4 ± 4.82% (HepG2; MTT; 30 µg/mL, 24 h).
With `CC[C@H](C)[C@H](NC(=O)[C@H](CO)NC(=O)[C@H](Cc1ccc(O)cc1)NC(=O)[C@H](Cc1ccc(O)cc1)NC(=O)[C@H](CC(N)=O)NC(=O)CNC(=O)[C@H](CO)NC(=O)[C@H](Cc1ccc(O)cc1)NC(=O)[C@H](CO)NC(=O)[C@H](CO)NC(=O)[C@H](CC(N)=O)NC(=O)COCCOCCNC(=O)CN1CCN(CC(=O)O)CCN(CC(=O)O)CCN(CC(=O)O)CC1)C(=O)N[C@@H](CC(C)C)C(N)=O` [copper-64 labelled] the tumour uptake was 6.67 %ID/mL (dynamic PET; mouse, tamoxifen-induced PDAC, blood; intravenous, 0.1 µg/mouse, 9.5 min).
The CC50 of `O=C(C[Se]C(=O)c1cc2ccccc2s1)Nc1cccc(C(F)(F)F)c1` is reported as 8.11 µM (NCI60 breast subpanel; NCI60 five-dose screen).
With `CC(C)CC(C(=O)N1CC2(CC1C#N)C(=O)Nc1ccccc12)N(C)C(=O)c1cc2c(F)cc(F)c(F)c2[nH]1` (stereo not drawn) the remaining activity was 71.1% (Replicase polyprotein 1ab, main protease (rep, Porcine epidemic diarrhea virus, UniProt P0C6Y4); protease activity, inhibitor; 1 µM).
With `Cc1cc(Oc2nc(N3CC[C@@H](c4ccncc4)C3)ncc2F)[nH]n1` the IC50 was 66.1 µM (COLO 205; cell proliferation).
For `COc1ccccc1-c1n[nH]c2nc(NC3CCN(C(=O)Cc4ccc(F)cc4F)CC3)ncc12`, the relative abundance was 0.98 (bead binding, competition bead pull-down, item: LINJ.36.4380; Leishmania donovani extract; 10 µM; reference: vehicle).
For `O=C(C[Se]C(=O)c1ccccc1)Nc1cccc(C(F)(F)F)c1`, “mean growth percent” read -3.5% (NCI60 colon subpanel; cell growth; 10 µM, 48 h, one-dose).
With `O=c1n(CCNCCOS(=O)(=O)c2ccccc2)c(=O)n(S(=O)(=O)c2ccccc2)c(=O)n1S(=O)(=O)c1ccccc1` the viability was 22.3% (A549; cell growth or viability, MTT; 200 µg/mL, 24 h).

For quick reference, copied from above:
`CC(C)(C)C(=O)OCOP(=O)(OCOC(=O)C(C)(C)C)C1CCCN(O)C1=O` (stereo not drawn) gave a log LC50 of greater than -4 log M (UO-31).
With `Cc1sc2c(c1C)C(c1ccc(Cl)cc1)=NC(CC(=O)OC(C)(C)C)c1nnc(C)n1-2` (stereo not drawn) the specific binding was 104% (CCR1 (Homo sapiens, UniProt P32246); agonist radioligand binding; 1 µM).
